Results from different studies.
Each numbered part is a random draw from the data of one study; scales do not carry over between parts.

Series 1 — method: protein-binding microarray; molecule type: double-stranded DNA, one strand shown; matrix: in vitro; concentration: 940 nM top; notes: 60-bp whole probe; added: salmon DNA 0.4 mg/ml; baseline: random background probes; reading: higher = stronger binding
Target: Interferon regulatory factor 5, full length, phosphomimetic (IRF5, Homo sapiens, UniProt Q13568-2, residues 1-514, S451D/S453D/S456D/S462D)
`GCCTAGCACGACGGTCTCGGTCTCAGGACGTGCTAGGTCTTGATTCGCTTGACGCTGCTG` — result for “fitted relative affinity”: 3.38 z-score.
Under “fitted relative affinity”, `GCCTAGCACGACAGACTGGGTCTCGGGACGTGCTAGGTCTTGATTCGCTTGACGCTGCTG` is recorded as -0.146 z-score.
For `GCCTAGCACTCATATATTTGCTTCAGACTGTGCTAGGTCTTGATTCGCTTGACGCTGCTG`, “fitted relative affinity” read 0.68 z-score.
Under “fitted relative affinity”, `GCCTAGCACTCAATCCCCAGTCTCATACTGTGCTAGGTCTTGATTCGCTTGACGCTGCTG` is recorded as 0.911 z-score.

Series 2 — method: RNA Bind-n-Seq; molecule type: RNA; matrix: in vitro; concentration: 200 nM; notes: whole 134-nt RNA, ends assumed; added: 150 mM LiCl; baseline: input library; reading: higher = stronger binding; library: 7-deaza-guanosine replaces G
Target: Fragile X messenger ribonucleoprotein 1, C-terminal low-complexity region (Fmr1, Mus musculus, UniProt P35922)
Shared flanks, not repeated: GGGAGUUCUACAGUCCGACGAUC … UGGAAUUCUCGGGUGUCAAGG
`AGUCCUGUGCUACACAUCGUAUGUACCGAAUCAAACCCCCAAAUUUAAAUUUUUAAAAAAGUAUUAUGUUACGCCGUUCGGAUCUGCACU` has a log2 enrichment of 0.303.
The log2 enrichment of `UCCUGUGCUACACAUCGUAUGUACCGAAUCGGUUUUUUGGGUUUUUUGGGGUUUUUUGGGAAAGUAUUAUGUUACGCCGUUCGGAUCUGC` is reported as -0.136.
The log2 enrichment of `CUGUGCUACACAUCGUAUGUACCGAAUCGGGAAAAAAAGGGGAAAAAAAGGAAAAAAAGGGGAAAGUAUUAUGUUACGCCGUUCGGAUCU` is reported as 0.316.
With `CACAGACAACACGCACCCACACAGACACAGAGGGACGGGGUUGGGAUGGGGACAGGGUGCACAGCAGGGCGGGGUAGGACCCCAGCCCCU` the log2 enrichment was -1.22.
`GUCCUGUGCUACACAUCGUAUGUACCGAAUCGGGGAAAGGGGUUUGGGGAAAAAGGGGAAAGUAUUAUGUUACGCCGUUCGGAUCUGCAC` has a log2 enrichment of -0.956.

Series 3 — method: universal PBM; molecule type: double-stranded DNA, one strand shown; matrix: in vitro; concentration: 600 nM; reading: higher = stronger binding
Target: Sal-like protein 4, full length isoform A (SALL4, Homo sapiens, UniProt Q9UJQ4, residues 1-1053)
Chain of UniProt Q9UJQ4 (whole entry, looked up): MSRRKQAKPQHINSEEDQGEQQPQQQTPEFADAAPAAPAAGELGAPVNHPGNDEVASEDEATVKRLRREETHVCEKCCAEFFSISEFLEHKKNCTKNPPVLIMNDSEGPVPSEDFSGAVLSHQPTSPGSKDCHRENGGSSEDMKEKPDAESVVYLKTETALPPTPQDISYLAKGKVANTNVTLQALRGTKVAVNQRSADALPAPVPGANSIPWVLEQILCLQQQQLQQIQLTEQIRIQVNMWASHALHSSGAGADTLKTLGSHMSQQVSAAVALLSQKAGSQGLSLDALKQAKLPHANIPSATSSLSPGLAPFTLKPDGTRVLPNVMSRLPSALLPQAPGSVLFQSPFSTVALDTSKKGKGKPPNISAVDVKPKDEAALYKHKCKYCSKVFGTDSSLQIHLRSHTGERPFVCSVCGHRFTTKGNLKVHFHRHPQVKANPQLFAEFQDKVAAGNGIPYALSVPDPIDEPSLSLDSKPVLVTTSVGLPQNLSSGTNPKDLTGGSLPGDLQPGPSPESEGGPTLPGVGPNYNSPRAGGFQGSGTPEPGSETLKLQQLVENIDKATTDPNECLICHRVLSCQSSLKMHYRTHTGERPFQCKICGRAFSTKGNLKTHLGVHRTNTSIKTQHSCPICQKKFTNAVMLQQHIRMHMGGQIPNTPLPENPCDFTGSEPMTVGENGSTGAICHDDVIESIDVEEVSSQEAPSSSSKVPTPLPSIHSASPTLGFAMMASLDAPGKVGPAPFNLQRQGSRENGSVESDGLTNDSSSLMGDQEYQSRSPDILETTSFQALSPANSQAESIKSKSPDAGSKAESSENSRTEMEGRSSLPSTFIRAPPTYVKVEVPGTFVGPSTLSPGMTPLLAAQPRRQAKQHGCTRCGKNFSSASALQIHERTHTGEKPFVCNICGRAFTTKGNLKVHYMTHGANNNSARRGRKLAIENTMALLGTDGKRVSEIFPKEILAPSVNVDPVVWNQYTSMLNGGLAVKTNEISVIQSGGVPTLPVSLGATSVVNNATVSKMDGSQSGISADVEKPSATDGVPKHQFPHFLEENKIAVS
Notes: 8-mer, flanks averaged, mean of replicates
`TCTGATAA` has an E-score of 0.167.
For `CGATATTA`, the E-score was 0.353.
`CGTATGTC` gave an E-score of 0.0218.
With `CGGCTAGA` the E-score was -0.186.

Further values, each from its own experiment
For `PhoQ, residues 284 288 289 292 302 303 SLCLSL`, the fold induction was 1.02 (PhoP, residues 12 14 15 18 19 VHSCL (Escherichia coli, UniProt P23836); Sort-seq, refers to: YFP reporter; E. coli; PhoQ-PhoP variant library, added: 10 µM Mg2+; baseline: high Mg2+ state, higher = stronger signaling).

Some of these lines once more (series 2):
The log2 enrichment of `UCCUGUGCUACACAUCGUAUGUACCGAAUCGGUUUUUUGGGUUUUUUGGGGUUUUUUGGGAAAGUAUUAUGUUACGCCGUUCGGAUCUGC` is reported as -0.136.
With `CACAGACAACACGCACCCACACAGACACAGAGGGACGGGGUUGGGAUGGGGACAGGGUGCACAGCAGGGCGGGGUAGGACCCCAGCCCCU` the log2 enrichment was -1.22.
